Assay results gathered from unrelated publications.
A part holds a random share of what one study measured.

Study 1
Target: Ras GTPase-activating protein-binding protein 1, RRM domain (G3BP1, Homo sapiens, UniProt Q13283)
UniProt Q13283, sequence (whole entry, looked up): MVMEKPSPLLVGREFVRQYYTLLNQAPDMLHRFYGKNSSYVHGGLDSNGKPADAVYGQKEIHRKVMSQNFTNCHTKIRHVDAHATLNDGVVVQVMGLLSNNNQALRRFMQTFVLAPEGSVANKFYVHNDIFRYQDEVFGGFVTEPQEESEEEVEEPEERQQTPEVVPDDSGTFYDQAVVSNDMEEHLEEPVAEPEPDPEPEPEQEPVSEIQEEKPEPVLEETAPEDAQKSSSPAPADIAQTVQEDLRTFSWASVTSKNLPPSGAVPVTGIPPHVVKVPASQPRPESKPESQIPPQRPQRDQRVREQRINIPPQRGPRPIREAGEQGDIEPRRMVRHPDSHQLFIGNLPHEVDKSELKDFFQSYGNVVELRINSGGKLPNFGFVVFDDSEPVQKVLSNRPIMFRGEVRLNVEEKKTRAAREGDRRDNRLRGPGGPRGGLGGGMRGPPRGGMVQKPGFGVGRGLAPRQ
Method: RNA Bind-n-Seq
Form: RNA
Sample: in vitro
Concentration: 1 µM
Notes: whole 134-nt RNA, ends assumed
With: 150 mM KCl
Baseline: input library
Reading: higher = stronger binding
Quantity: log2 enrichment
Shared flanks, not repeated: GGGAGUUCUACAGUCCGACGAUC … UGGAAUUCUCGGGUGUCAAGG
Strand = CACAGACAACACGCACCCACACAGACACAGAGGGAAGGGGUUGGGAUGGGGACAGGGUGCACAGCAGGACGGGGUAGGACCCCAGCCCCU; value = -0.405
Strand = CUCAAGUCCUGUGCUACACAUCGUAUGUACCGAAUCGGAGGUUUUUGGUUUGGAAAGUAUUAUGUUACGCCGUUCGGAUCUGCACUUCCA; value = -0.367
Strand = GUCCUGUGCUACACAUCGUAUGUACCGAAUCGGGGAAAAAAAGGGGAAAGGGGAGGGGAAAGUAUUAUGUUACGCCGUUCGGAUCUGCAC; value = 1.1
Strand = AGUCCUGUGCUACACAUCGUAUGUACCGAAUCAAACCCCCAAACCCCCAAAUUUAAAAAAGUAUUAUGUUACGCCGUUCGGAUCUGCACU; value = -0.119
Strand = GGUAUUCUGCAAGUACUGUAGAUGUUAUAGAAAUGAUGGAGGAUGAUAAAGUUGAUCUGAAUUUGAUUGUUGCCCUCAUCCGAUACAUUG; value = -0.232
Strand = CCUGUGCUACACAUCGUAUGUACCGAAUCGGUUUUUUUGGGGUUUUUUUGGGUUUUUUUGGAAAGUAUUAUGUUACGCCGUUCGGAUCUG; value = -0.137
Strand = CAAGUCCUGUGCUACACAUCGUAUGUACCGAAUCGGGGAAAGGGAAAGGGAAAGGGAAAGUAUUAUGUUACGCCGUUCGGAUCUGCACUU; value = 0.688
Strand = UCCUGUGCUACACAUCGUAUGUACCGAAUCGGGAAAAAGGGGAAAAAGGGAAAAAGGGGAAAGUAUUAUGUUACGCCGUUCGGAUCUGCA; value = -0.0757
Strand = CACAGACAACACGCACCCACACAGACACAGAGGGAAGGGGUUGGGAUGGGGACAGGGUGCACAGCAGGGCGGGGGAGGACCCCAGCCCCU; value = 0.154
Strand = UAACUUUAGAGGAGGAUCUAAUGGAUAUGGCAGUGGACGUGGAUUUGGGGAUGGCUAUAAUGGGUAUGGAGGAGGACCUGGAGGUGGCAA; value = -0.718
Strand = UGGGAGGUGGAUUUUGUUUAUUUUUAUAGCUCAUUUCCAGGGGUGGGAAUUUUUUUUUAAUAUGUGUCAUGAAUAAAGUUGUUUUUGAAA; value = 1.73
Strand = UAUUGAUGCAUUUGACCCUACACUGGCUCCAGCCACAGGAACUCCUGUUGUCGGGGGACUAACCUAUCGAGAAGGCAUGUAUAUUGCUGA; value = -0.202
Strand = AGUCCUGUGCUACACAUCGUAUGUACCGAAUCGGGUUUGGGUUUUUGGGAAAAAGGGAAAGUAUUAUGUUACGCCGUUCGGAUCUGCACU; value = 0.55
Strand = ACCAUGCAGGUGGGCAUGUUUGGGAAGUGGGGCAAGGGGGGGAUAGGGAGGGGGGUAACACUUUGGGAACAGGUGGUCCCAGGUCGUUUC; value = -0.421

Study 2
Target: RNA binding protein fox-1 homolog 2, RRM domain, GST-SBP tag (RBFOX2, Homo sapiens, UniProt O43251-10, residues 100-194)
Method: RNA Bind-n-Seq
Form: RNA
Sample: in vitro
Concentration: 365 nM
Notes: natural RNA segment, single round, ends assumed
Baseline: no-protein control
Reading: higher = stronger binding
Quantity: RBNS enrichment (R)
Shared flanks, not repeated: GGGAGUUCUACAGUCCGACGAUC … UGGAAUUCUCGGGUGCCAA
Residues (chain): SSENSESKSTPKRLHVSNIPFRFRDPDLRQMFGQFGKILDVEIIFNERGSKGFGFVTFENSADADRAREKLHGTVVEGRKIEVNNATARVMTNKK
Strand = GGCCUCUUAGGCCAGUGCCGGAGGAGGCAUGCUCCUCUUUCUAUGCCACAGAACAAACACUACUCUAGCAGAGCCUUUCUUGCACUUUAAAGUGAGAUUAAUUUAGCUGU; value = 0.497
Strand = ACAGCUUUCUCUCUCAGCCAUUGUUCACCCCACUUGAAAAUUCAAACAAGAAAACUUUGCUUCAAAGAUCUCAUGUGUGGGAACCACAGCGCCUGGUUGCCUUUCUCCUG; value = 0.394
Strand = AUGUAAACCAUGUGAGAGGGAAAUGUUAAUAAAAAAAUUGCAAAGCCUCAACAUUUGCACAAAACUCGCCCCAUGGUGUGGUUGUUUGUGUUCUCAGUAGUCCAGGAAAG; value = 0.28
Strand = GAAAGCAUCUUCACAAUGAAGCUUCCAGAUAGCACCGUUUUGCUAAAAGAUACAUUCUCAUUGUUUUCCAACAGUGAUGGCUUCCACAUAAGGUUAAACAAACUAGGUGC; value = 0.279
Strand = CUUGGUUUGGGGGUUCAGGCUCUAGGAUCGAUUCCAGAAGGAGCCUUGAGCCCCAACCCCGUGAAAAGAUCUCAUACCGUAGGACUUCAGGUAUUAUUUACUUUUAUUUU; value = 0.488
Strand = UCUCUUAGAUUGAAGUGACAGAAUCUGAAAGAAAAGAAUAUGAUUGAGCUAUUUGUUUUCCUGAACACCUCACCUUUUAUGAUGCAAUAAGUUACUCUGAGUUUCUUGGC; value = 0.999
Strand = UCCAGUGUCUUCCACGGAGCCUCUGGGGCUCCUCCCUCACCUGGCAGCCCCUCCAGCUGCUGGUGAUCUCACCCCUGGGACAUUUUUCCAAUAAAGGUUCUGGACAAACU; value = 0.315
Strand = CUUAUGCUGUCCCGGCCUCGCCAGCCCUCUGGGGCAUUGUGGGAGAUGCCUGCCAGGAAUGAGCAAGCUCUGUUGCUCGGGAGCCUCUUGUCACCUUCUUGGACUUAUUC; value = 2.4
Strand = UCUGUAUUAUCAGAUCACAAAGGUGGAAUGUUACUAUUUUAUCAGCAAGAUAUUAAAAUGUAUUUCUAAAUCCUCCUUGGUUUCAAUCAUGAAUAAACUUAUUAGCAAUU; value = 0.426
Strand = AGCUCGCUGGCCUCGCGCUGGGCGGCUGGGAAUUCCACCUGAGAACAAGUCCCGCAAACCGGGGACGGAAGGACAUUUGACUUUUAUUUUUGUAUUUAAUUGACAUGAAU; value = 0.634
Strand = UCUGUGGGCUCGUAGUCCUCUGAAAGUGGUUGUUUUCCUAUGCACAGUGAGCUCAGAAAUAAAAACUCCAUUUUGAGACAUUCAGAAUGUCCCAACAUUACGACAACAUU; value = 0.317
Strand = UCCAAGAGGGGACCUGUGGCCAGAUACUUUCCACUUUAGGCUCACAGGGUUGAGUUGCAAAAGCCACAGCUCUUUGUUCUGUGUGCACUUUCUUGGAGAACCCCAUUGUG; value = 0.354

Study 3
Target: Histone acetyltransferase KAT6A, winged helix 2, GST fusion (KAT6A, Homo sapiens, UniProt Q92794, residues 85-181)
Method: protein binding microarray
Form: double-stranded DNA, one strand shown
Sample: in vitro
Concentration: not given
Notes: 8-mer, flanks averaged, mean of 2 arrays, mostly near background
Baseline: not given
Reading: higher = stronger binding
Quantity: E-score
Construct (chain): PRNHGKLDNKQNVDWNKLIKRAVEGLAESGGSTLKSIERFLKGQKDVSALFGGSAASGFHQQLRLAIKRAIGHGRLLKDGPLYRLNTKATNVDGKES
Strand = ATGTAGTC; value = -0.0974
Strand = CTAGGAGA; value = -0.0678
Strand = AGGGCGAG; value = -0.044
Strand = AGCTTGTG; value = 0.0438
Strand = CAAGACAC; value = 0.131
Strand = ACGTTCCT; value = -0.177
Strand = CGAACCAC; value = -0.0756
Strand = CCCCGCAC; value = 0.18
Strand = ATTTACGC; value = -0.0836
Strand = CCGTTGAC; value = -0.197
Strand = ACTGCATA; value = 0.0841
Strand = CAAAAAAA; value = 0.188
Strand = TAACTGCA; value = -0.0675
Strand = CGACTGTC; value = -0.143
Strand = CCGATGAC; value = 0.0366
Strand = AAACCTGA; value = -0.114
Strand = CAAGGATC; value = -0.0451
Strand = CCGCCCGG; value = 0.325

Study 4
Target: Eukaryotic initiation factor 4A-I (EIF4A1, Homo sapiens, UniProt P60842, residues 1-406, full length assumed)
UniProt P60842, sequence (whole entry, looked up): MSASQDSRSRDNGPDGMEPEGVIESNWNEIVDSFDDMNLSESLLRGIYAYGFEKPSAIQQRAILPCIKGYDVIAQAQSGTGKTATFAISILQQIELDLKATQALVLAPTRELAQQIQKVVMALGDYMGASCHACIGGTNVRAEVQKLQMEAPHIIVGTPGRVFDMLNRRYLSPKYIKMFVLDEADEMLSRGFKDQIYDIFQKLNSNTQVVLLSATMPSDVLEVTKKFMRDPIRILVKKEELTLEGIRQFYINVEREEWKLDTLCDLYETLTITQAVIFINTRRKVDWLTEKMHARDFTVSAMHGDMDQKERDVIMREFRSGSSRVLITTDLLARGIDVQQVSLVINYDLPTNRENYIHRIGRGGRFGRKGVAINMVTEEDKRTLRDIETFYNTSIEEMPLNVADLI
Method: RNA Bind-n-Seq
Form: RNA
Sample: in vitro
Concentration: 90 pmol
Notes: 4-mer, random 30-nt RNA, single round
With: 3 µM DMDA-PatA, 2 mM ADP, 2 mM phosphate
Baseline: input library
Reading: higher = stronger binding
Quantity: 4-mer enrichment
Strand = AUGA; value = 1.04 fold
Strand = ACCG; value = 0.619 fold
Strand = AUGU; value = 1.15 fold
Strand = UCGG; value = 0.726 fold
Strand = ACUC; value = 0.561 fold
Strand = UUAU; value = 1.07 fold
Strand = CCCA; value = 0.726 fold
Strand = UACA; value = 0.783 fold
Strand = GGUC; value = 0.673 fold
Strand = CACC; value = 0.65 fold
Strand = AGUU; value = 1.13 fold
Strand = AUCC; value = 0.618 fold
Strand = UGCC; value = 0.567 fold
Strand = AGCG; value = 1.78 fold
Strand = AGAG; value = 1.65 fold
Strand = CACU; value = 0.569 fold
Strand = AGGU; value = 1.15 fold
Strand = ACGC; value = 0.683 fold
Strand = GGGU; value = 1.33 fold
Strand = UUCC; value = 0.635 fold
Strand = UCAA; value = 0.821 fold

Study 5
Target: Sal-like protein 4, full length isoform A (SALL4, Homo sapiens, UniProt Q9UJQ4, residues 1-1053)
UniProt Q9UJQ4, sequence (whole entry, looked up): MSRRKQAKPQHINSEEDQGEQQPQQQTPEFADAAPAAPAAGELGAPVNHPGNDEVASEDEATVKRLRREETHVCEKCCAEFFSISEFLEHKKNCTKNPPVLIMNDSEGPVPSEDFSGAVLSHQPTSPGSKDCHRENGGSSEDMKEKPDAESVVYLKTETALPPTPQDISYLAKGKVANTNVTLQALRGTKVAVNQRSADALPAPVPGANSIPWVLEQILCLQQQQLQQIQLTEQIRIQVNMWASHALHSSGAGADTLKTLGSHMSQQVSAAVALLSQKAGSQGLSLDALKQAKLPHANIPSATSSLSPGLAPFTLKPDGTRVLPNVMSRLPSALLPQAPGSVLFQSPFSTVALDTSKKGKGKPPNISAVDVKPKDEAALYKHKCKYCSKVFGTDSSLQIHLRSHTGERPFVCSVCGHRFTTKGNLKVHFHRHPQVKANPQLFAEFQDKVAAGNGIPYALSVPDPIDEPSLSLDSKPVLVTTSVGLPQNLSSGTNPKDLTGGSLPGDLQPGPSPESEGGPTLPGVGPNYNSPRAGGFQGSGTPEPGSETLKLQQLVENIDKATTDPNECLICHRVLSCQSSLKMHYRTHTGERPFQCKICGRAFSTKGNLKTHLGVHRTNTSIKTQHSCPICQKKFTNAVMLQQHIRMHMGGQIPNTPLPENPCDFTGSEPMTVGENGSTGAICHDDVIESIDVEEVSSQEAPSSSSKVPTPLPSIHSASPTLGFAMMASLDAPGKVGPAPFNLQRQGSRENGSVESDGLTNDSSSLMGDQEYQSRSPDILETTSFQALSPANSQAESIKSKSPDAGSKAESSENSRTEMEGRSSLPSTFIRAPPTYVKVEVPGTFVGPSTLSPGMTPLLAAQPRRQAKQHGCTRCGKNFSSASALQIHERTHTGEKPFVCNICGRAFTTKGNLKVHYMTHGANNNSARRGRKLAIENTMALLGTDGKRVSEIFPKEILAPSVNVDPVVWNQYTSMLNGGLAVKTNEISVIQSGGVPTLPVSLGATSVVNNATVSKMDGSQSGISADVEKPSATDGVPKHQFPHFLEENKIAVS
Method: universal PBM
Form: double-stranded DNA, one strand shown
Sample: in vitro
Concentration: 600 nM
Notes: 8-mer, flanks averaged, mean of replicates
Reading: higher = stronger binding
Quantity: E-score
Strand = GAGCCAGA; value = -0.26
Strand = CGAGTGTA; value = 0.00249
Strand = AGAATAGC; value = 0.0988
Strand = CGGTGGCC; value = -0.37
Strand = ACATCTGC; value = -0.0711
Strand = TACAACGA; value = 0.178
Strand = GTGTTCAA; value = 0.0991
Strand = AACTACTC; value = 0.0763
Strand = TGATCCAA; value = 0.171
Strand = CTCGGTCA; value = -0.061
Strand = AGTTTTAC; value = 0.095
Strand = ATTGCGCG; value = 0.0928
Strand = CGGTTCCA; value = -0.256
Strand = GTAATGGA; value = 0.164
Strand = AGCAGTTA; value = 0.0668
Strand = ACAACTGC; value = -0.00713
Strand = CGAAGGCA; value = -0.0845

Study 6
Target: RING finger protein unkempt homolog, zinc fingers 1-6, GST-SBP tag (UNK, Homo sapiens, UniProt Q9C0B0, residues 30-357)
UniProt Q9C0B0, sequence (30-357, looked up): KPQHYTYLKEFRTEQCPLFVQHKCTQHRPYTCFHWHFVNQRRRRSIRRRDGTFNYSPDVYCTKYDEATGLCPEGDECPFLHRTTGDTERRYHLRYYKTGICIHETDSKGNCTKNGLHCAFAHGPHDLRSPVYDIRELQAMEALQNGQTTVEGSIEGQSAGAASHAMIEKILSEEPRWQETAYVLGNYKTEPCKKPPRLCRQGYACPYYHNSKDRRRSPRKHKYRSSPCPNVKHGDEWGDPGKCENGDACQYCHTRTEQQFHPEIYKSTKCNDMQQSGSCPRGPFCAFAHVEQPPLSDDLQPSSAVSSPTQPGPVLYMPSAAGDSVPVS
Method: RNA Bind-n-Seq
Form: RNA
Sample: in vitro
Concentration: not given
Notes: RNA with constant flanks, human and mouse sites, ends assumed
Baseline: input RNA pool
Reading: higher = stronger binding
Quantity: bound/input enrichment
Shared flanks, not repeated: GGGAGUUCUACAGUCCGACGAUC … CAACAGAGGAUUGAGCAUCA
Strand = AUCUCCUCCAUCCUGGGCACCUGGCUGGACCAAUACUCAGAGGAUUUCUGUCAACCUCCGGACUUUCCCUGCCUCAAGCAGCUGGUGGCUUAUGUACAGCUCAACAUGCCUGGCUCAGAU; value = 0.123 ratio
Strand = UAUUAUUUAUCUGUAUUUUUGGAACUAUCGGCUGGCUUGCCUGAAACUUCCAAGUAUGAAUAUCGUGUAGAAAUGGUUCACCAGUCGUGCAAUGAUCCUACAAAAAAUAUCAUUCGAGAA; value = 0.141 ratio
Strand = ACAGACAUCCGCUGCCCCUUUGAAAAACGAAGAGAUGCAGCAUGCGUGUUUUGGGACAAUGUAGUAUACAUUUUGGGAGGCUCUCAGCUUUUCCCAAUAAAGCGAAUGGACUGCUAUAAU; value = 0.119 ratio
Strand = CCAUCCCCCCUGCCGUCUCAUACACCAAGAGGCCUCAGGCCAACAGCGUGGAGAGUGAACAGAAGGAGGAGUGGGGCAAAGACACAGCCCGCAGACUUGGCAGCACCACAGUGGGAUCAA; value = 0.109 ratio
Strand = UUGGAAACCUAUUAUGAGCGUGUCUUGAAGAGAAAAACAUUUAACAAGGUUUUAGGACAUGUCAACAAUAUAUUAAUCUCUGCGGUGCUGCCAACAGCAUUCCGGGUGGCCAAAAAAAGG; value = 0.242 ratio
Strand = UACGAAACAGUGGUUGGCCCUGGUGAUGUUCUUUACAUCCCAAUGUACUGGUGGCAUCACAUAGAGUCAUUACUAAAUGGGGGGAUUACCAUCACUGUGAACUUCUGGUAUAAGGGGGCU; value = 0.115 ratio
Strand = GAGGCCAUUGAGCUUCCAAUAGAUCCCAAGUUGAACAAAAGACGGGGUUUUGUUUUUAUUACAUUUAAAGAGGAAGAUCCUGUGAAGAAAGUUCUGGAGAAGAAAUUUCAUACUGUCAGU; value = 0.357 ratio
Strand = CCACUGGACAUUGAAUGGCUGAUAUCCCCGUCUGAUAACCAGAUAGUGGAUCAAGUGAUCAUUUUGUAUUCUGGAGACAAAAUUUAUGAUAACUACUAUCCGGAUCUGAAAGGACGGGUA; value = 0.562 ratio
Strand = UGUUAAUAAAUUAGAAGCUAUUAACUAAACAUACCUAAAUGACACAGCUAAUAAAUGGAUUAGUUUCAUGUUCAUAACAAACUGAAAAAUACAUUACUCCAAGAAAAAGUCUUGAUACUG; value = 0.91 ratio
Strand = UAUAGCCCUGGGUCUUCUGGCGUUCCCUAUGCAAAUGCCAAAGGAAUUGGAUAUCCAGCUGGUUUUCCUGUGGGCUAUGCAGCAGCACCUGCCUAUUCUCCUAACAUGUACCCUGGAGCG; value = 0.128 ratio
Strand = GGAAGCUUCCAAAAGAAAACCCCACAAGUUUUCCAUUUUCUUGAAGUAGAAAAAUGAACAGUAAUUAUGAAGAUGAUUAAUAAUUGUGCUAUGGGAUGUGUGGACUGUUUUGUGUGUUUC; value = 0.307 ratio
